Assay results pooled from the literature.
Every numbered part comes from another study and shows a few of its results, in no order. ± marks the error that the study gave.

Sample 1 — organism: SARS-CoV-2 Wuhan spike VSV pseudovirus; read-out: pseudovirus entry; tested at: 10 µM
`CCc1ccc(OCc2ccccc2C(=O)Nc2ccc3nc(C)cc(N)c3c2)cc1` gave an inhibition of 60%.
For `N#CC1(NC(=O)Cn2ncc(Cl)c(Cl)c2=O)CCCCC1`, the inhibition was 72%.
With `COc1cc(C=C2COC/C(=C\c3cc(OC)c(OC)c(OC)c3)C2=O)cc(OC)c1OC` the inhibition was 46%.
The inhibition of `CCOc1ccc(CCNc2ncnc3sc(CC)cc23)cc1OCC` is reported as 69%.
`Cn1ccnc1SCc1cn2cc(Cl)ccc2n1` has an inhibition of 100%.
For `COC[C@@H]1CN(C(=O)CC(C)C)C[C@H]1c1nc(C)no1`, the inhibition was 83%.
`CC(CCc1ccccc1)NC(=O)c1ccc(-c2cc(N3CCOCC3)ncn2)cc1` (stereo not shown) gave an inhibition of 80%.
`Cc1cc2oc(=O)cc(Cn3ncc(Cl)c(Cl)c3=O)c2cc1C(C)C` has an inhibition of 86%.
With `CCN(CC)CCNC(=O)c1c(C)oc2c1C(=O)c1ccccc1C2=O` the inhibition was 100%.
The inhibition of `Cc1cc(C)cc(Oc2c(C)oc3c(CN4CCCCCC4)c(O)ccc3c2=O)c1` is reported as 76%.
`CN(C)C1(CNC(=O)c2ccc(C#CC(C)(C)O)o2)CCSC1` (stereo not shown) gave an inhibition of 100%.
`O=S(=O)(c1ccc(-c2nnc(C3CCC3)o2)o1)N1CCN(C2CCCCC2)CC1` has an inhibition of 79%.
`O=C(Cn1cncn1)N1CCC(c2cc(-c3ccccc3Cl)n[nH]2)CC1` gave an inhibition of 100%.
The inhibition of `CN1CCN(C(=O)c2ccc3oc(Cc4ccccc4)nc3c2)CC1c1ccccc1` (stereo not shown) is reported as 84%.
With `CCn1nc(C)c(C(=O)Nc2cccc(NC(=O)c3ccccc3OC)c2)c1C` the inhibition was 91%.
With `Cc1cccc2c(-c3ccncn3)c[nH]c12` the inhibition was 91%.
The inhibition of `O=C(Cn1ncc(Cl)c(Cl)c1=O)c1ccc(Cl)s1` is reported as 64%.
`O=C(N[C@@H]1CN(Cc2c[nH]c3ccccc23)C[C@H]1CO)c1ccccc1` gave an inhibition of 72%.
`CCc1ccc(NC(=O)c2cnc(N3CCN(c4ccccn4)CC3)c3ccccc23)cc1` gave an inhibition of 64%.
The inhibition of `CC(=O)c1ccc(NC(=O)CSc2nnc(-c3nc(-c4ccccc4)no3)n2C)cc1` is reported as 83%.
The inhibition of `Cc1noc(C)c1CN1C[C@@H](CO)[C@H](NC(=O)c2cccnc2)C1` is reported as 84%.
The inhibition of `C=C(Cl)COC(=O)c1ccc2c(c1)S(=O)(=O)N=C1CCCCCN12` is reported as 61%.
The inhibition of `O=C1C2C3C=CC(C2C(=O)N1c1ccccc1)C1C2C(=O)N(c4ccccc4)C(=O)C2C31` (stereo not shown) is reported as 72%.

Other studies, line by line
rep papain-like protease: Replicase polyprotein 1ab, papain-like protease (rep, Severe acute respiratory syndrome coronavirus 2, UniProt P0DTD1)
rep nsp12 RdRp: Replicase polyprotein 1ab, nsp12 RdRp (rep, Severe acute respiratory syndrome coronavirus 2, UniProt P0DTD1)
Spike glycoprotein S2 subunit: Spike glycoprotein, S2 subunit (Severe acute respiratory syndrome coronavirus 2, UniProt P0DTC2)
rep nsp14: Replicase polyprotein 1ab, nsp14 (rep, Severe acute respiratory syndrome coronavirus 2, UniProt P0DTD1)
`COc1nc2ccc(Br)cc2cc1[C@@H](c1ccccc1)[C@@](O)(CCN(C)C)c1cccc2ccccc12` gave an MIC of 0.31 µM (Mycobacterium tuberculosis; H37Rv Pks13 resistant mutants).
The activity of `O=c1c(-c2ccc(O)cc2)coc2c([C@@H]3O[C@H](CO[C@@H]4OC[C@@H](O)[C@H](O)[C@H]4O)[C@@H](O)[C@H](O)[C@H]3O)c(O)ccc12` is reported as 18.9% (rep papain-like protease; concentration not given, C111S mutant; relative to: positive control).
With `CCN(CC)C12C3CCC4C3C3C(CCC31)C42.Cl` the inhibition was 0% (Matrix protein 2 (Influenza A virus, UniProt P0DOF5, V27A); concentration not given, pH 5.5, cell-based).
`C=C1C[C@@]23CC[C@H]4[C@@](C)(CCC[C@@]4(C)C(=O)O)[C@@H]2CC[C@]1(O[C@@H]1O[C@H](CO)[C@@H](O)[C@H](O)[C@H]1O[C@@H]1O[C@H](CO)[C@@H](O)[C@H](O)[C@H]1O)C3` gave a BLI response of 0.05 nm (rep nsp12 RdRp; binding, biolayer interferometry; 50 µM).
For `CCC(CC)COC(=O)[C@H](C)N[P@](=O)(OC[C@H]1O[C@@](C#N)(c2ccc3c(N)ncnn23)[C@H](O)[C@@H]1O)Oc1ccccc1`, the EC90 was 2000 ± 500 nM (SARS-CoV-2 Delta; viral replication; Calu-3).
The BLI response of `C[C@@H]1O[C@@H](OC[C@H]2O[C@@H](OCCc3ccc(O)c(O)c3)[C@H](O)[C@@H](O)[C@@H]2OC(=O)/C=C/c2ccc(O)c(O)c2)[C@H](O)[C@H](O)[C@H]1O` is reported as 0.03 nm (rep nsp12 RdRp; binding, biolayer interferometry; 50 µM).
`CO[C@H]1/C=C/O[C@@]2(C)Oc3c(C)c(O)c4c(O)c(c(/C=N/N5CCN(C)CC5)c(O)c4c3C2=O)NC(=O)/C(C)=C\C=C\[C@H](C)[C@H](O)[C@@H](C)[C@@H](O)[C@@H](C)[C@H](OC(C)=O)[C@@H]1C` gave an IC50 of 13 nM (Mycobacterium tuberculosis; bacterial growth; fluoroquinolone-resistant).
With `N#C[C@@]1(n2ccc(N)nc2=O)O[C@H](CO)[C@@H](O)[C@H]1O` the EC50 was 900 ± 1200 nM (SARS-CoV-2; viral replication; Calu-3, Alpha).
For `CCCCCCCCCCCC(=O)ONc1ccn([C@@H]2O[C@H](CO)[C@@H](O)[C@H]2O)c(=O)n1`, the selectivity index was 7 to 49 (SARS-CoV-2; relative to: CC50 over EC50).
`Nc1ncc(-c2ccnc(Nc3ccncc3)n2)c(CC2CC2)n1` has an IC50 of < 600 nM (SARS-CoV-2; Vero C1008).
The ΔTm of `Cc1cc(C(C#N)c2ccc(Cl)cc2)c(Cl)cc1NC(=O)c1cc(I)cc(I)c1O` (stereo not shown) is reported as -2.39 °C (Spike glycoprotein S2 subunit; S2 subunit).
For `NNC(=O)c1ccncc1`, the IC50 was 310 nM (Mycobacterium tuberculosis; bacterial growth; fluoroquinolone-resistant).
With `NNC(=O)c1ccncc1` the MIC was 0.62 µM (Mycobacterium tuberculosis; H37Rv Pks13 resistant mutants).
`CCC(CC)[C@H](NC(C)=O)[C@@H]1[C@H](O)[C@@H](C(=O)O)C[C@H]1N=C(N)N` gave an IC50 of 3.4 ± 0.3 nM (neuraminidase (Influenza B virus, UniProt C0LT34, G145E)).
`CNC12CC3CC(CC(C3)O1)C2` has an inhibition of 0% (Matrix protein 2 (Influenza A virus, UniProt P0DOF5, S31N); concentration not given, pH 5.5, cell-based).
`O=[N+]([O-])c1cn2c(n1)OC[C@@H](OCc1ccc(OC(F)(F)F)cc1)C2` gave an MIC of 0.06 µg/mL (Mycobacterium tuberculosis; H37Rv katG deletion).
With `Cc1cc2c(C(C)C)c(O)c(O)c(C=O)c2c(O)c1-c1c(C)cc2c(C(C)C)c(O)c(O)c(C=O)c2c1O` the ΔTm was -1.28 °C (Spike glycoprotein S2 subunit; S2 subunit).
`C[S+](CC[C@H](N)C(=O)[O-])C[C@H]1O[C@@H](n2cnc3c(N)ncnc32)[C@H](O)[C@@H]1O` (stereo partly shown) gave a ΔTm of 1.8 °C (rep nsp14; thermal shift; 500 µM).
`CC[C@H](C)[C@@H]1NC(=O)[C@H](CCC(N)=O)NC(=O)[C@H](CCC(=O)O)NC(=O)[C@H](CCCNC(=N)N)NC(=O)[C@@H]2CCCN2C(=O)[C@H](CCCNC(=N)N)NC(=O)[C@H](CCCNC(=N)N)NC(=O)[C@H](Cc2ccc(O)cc2)NC(=O)CSC[C@@H](C(=O)NCC(N)=O)NC(=O)[C@H](Cc2ccccc2)NC(=O)[C@H](C(C)C)NC(=O)[C@H](Cc2c[nH]c3ccccc23)NC(=O)[C@H](CC(C)C)NC(=O)[C@H](CO)NC(=O)CNC(=O)[C@H]([C@@H](C)CC)NC(=O)[C@H]([C@@H](C)CC)NC1=O` has a Kd of 60 nM (SARS-CoV-2 spike protein Beta variant; binding).
`COc1c(N2C[C@@H]3CCCN[C@@H]3C2)c(F)cc2c(=O)c(C(=O)O)cn(C3CC3)c12` has an MIC of 0.06 µg/mL (Mycobacterium tuberculosis; H37Rv katG deletion).
With `COc1cc2c(cc1OC)-c1c(C)c3ccc(OC)c(OC)c3c[n+]1CC2` the activity was 21.8% (rep papain-like protease; concentration not given, C111S mutant; relative to: positive control).
The IC50 of `CCC(CC)COC(=O)[C@H](C)N[P@](=O)(OC[C@H]1O[C@@](C#N)(c2ccc3c(N)ncnn23)[C@H](O)[C@@H]1O)Oc1ccccc1` is reported as 1540 nM (Severe acute respiratory syndrome coronavirus 2; viral replication, inhibitor; Vero C1008).
For `Cc1ccc(NS(=O)(=O)c2cccc(C(=O)NC3CCN(c4ncnc5[nH]cnc45)CC3)c2)cc1`, the inhibition was 74.4% (rep nsp14; 12.5 µM).

A few entries again (sample 1):
`O=C(N[C@@H]1CN(Cc2c[nH]c3ccccc23)C[C@H]1CO)c1ccccc1` gave an inhibition of 72%.
`CCc1ccc(NC(=O)c2cnc(N3CCN(c4ccccn4)CC3)c3ccccc23)cc1` gave an inhibition of 64%.
The inhibition of `CC(=O)c1ccc(NC(=O)CSc2nnc(-c3nc(-c4ccccc4)no3)n2C)cc1` is reported as 83%.
